Results gathered from unrelated publications.
Each numbered part is a random draw from the data of one study; scales do not carry over between parts. Values joined by “and” are separate records of one study, mostly repeats; a detail may differ.
UniProt P57682, sequence (whole entry, looked up): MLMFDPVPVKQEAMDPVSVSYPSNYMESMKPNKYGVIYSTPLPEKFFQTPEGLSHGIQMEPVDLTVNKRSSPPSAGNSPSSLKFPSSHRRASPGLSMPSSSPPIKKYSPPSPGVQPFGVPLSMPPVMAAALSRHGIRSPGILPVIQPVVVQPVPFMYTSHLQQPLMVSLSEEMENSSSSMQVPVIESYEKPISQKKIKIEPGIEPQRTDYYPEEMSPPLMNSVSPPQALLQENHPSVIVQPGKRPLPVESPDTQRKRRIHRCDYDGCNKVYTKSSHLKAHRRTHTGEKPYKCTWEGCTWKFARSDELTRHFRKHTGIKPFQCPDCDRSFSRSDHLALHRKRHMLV
UniProt P42224, sequence (whole entry, looked up): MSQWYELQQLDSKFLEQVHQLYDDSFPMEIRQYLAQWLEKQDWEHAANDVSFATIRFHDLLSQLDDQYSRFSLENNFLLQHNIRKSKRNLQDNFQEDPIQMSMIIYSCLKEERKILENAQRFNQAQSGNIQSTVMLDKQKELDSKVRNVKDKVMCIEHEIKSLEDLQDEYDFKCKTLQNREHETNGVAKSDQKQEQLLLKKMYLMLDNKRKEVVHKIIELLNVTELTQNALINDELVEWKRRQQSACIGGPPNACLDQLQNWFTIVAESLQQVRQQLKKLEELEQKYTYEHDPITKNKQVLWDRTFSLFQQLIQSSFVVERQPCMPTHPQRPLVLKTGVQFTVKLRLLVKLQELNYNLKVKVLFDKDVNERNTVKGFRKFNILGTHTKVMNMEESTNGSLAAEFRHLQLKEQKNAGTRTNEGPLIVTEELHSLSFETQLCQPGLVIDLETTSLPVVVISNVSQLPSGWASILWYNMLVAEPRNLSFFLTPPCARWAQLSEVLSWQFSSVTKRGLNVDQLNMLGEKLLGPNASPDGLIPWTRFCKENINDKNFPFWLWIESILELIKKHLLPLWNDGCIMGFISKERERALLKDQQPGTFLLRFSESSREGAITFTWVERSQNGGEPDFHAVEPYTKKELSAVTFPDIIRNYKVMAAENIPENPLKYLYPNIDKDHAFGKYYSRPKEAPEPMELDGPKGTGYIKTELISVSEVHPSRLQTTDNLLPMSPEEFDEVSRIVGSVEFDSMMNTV

Block 1 — technique: RNAcompete; molecule type: RNA; medium: in vitro; concentration: 20 nM; setting: 7-mer, probes averaged, single round; reference: mean of 7-mers; reading: higher = stronger binding
Target: PABPC1L2, full length, GST fusion (mouse, UniProt A0ABA7IW68)
Target sequence (chain): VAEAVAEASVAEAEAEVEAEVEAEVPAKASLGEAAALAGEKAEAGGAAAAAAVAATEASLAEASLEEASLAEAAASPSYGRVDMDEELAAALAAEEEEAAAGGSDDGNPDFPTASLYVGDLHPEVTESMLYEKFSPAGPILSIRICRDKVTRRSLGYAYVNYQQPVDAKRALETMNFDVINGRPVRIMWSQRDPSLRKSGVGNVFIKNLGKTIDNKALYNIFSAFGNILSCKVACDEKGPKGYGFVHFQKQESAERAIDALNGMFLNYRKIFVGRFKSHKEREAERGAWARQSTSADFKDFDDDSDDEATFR
Oligonucleotide | 7-mer Z-score
CUUACGA | -0.117
ACCACCA | -0.0446
CGUUACG | -0.306
UUUAUCG | 0.0587
CUCAACA | -0.151
GCAUUGU | -0.306
GUCCCUC | -0.304
AGAGUGC | -0.128

Block 2 — technique: protein-binding microarray; molecule type: double-stranded DNA, one strand shown; medium: in vitro; concentration: 2200 nM top; setting: 60-bp whole probe; with: salmon DNA 0.4 mg/ml; reference: random background probes; reading: higher = stronger binding; constant ends, left off below: GCCTAGCAC … GTCTTGATTCGCTTGACGCTGCTG
Target: Interferon regulatory factor 7, full length, phosphomimetic (IRF7, Homo sapiens, UniProt Q92985, residues 1-503, S471D/S472D/S475D/S476D/S477D/S483D/S484D/S487D)
Construct (chain): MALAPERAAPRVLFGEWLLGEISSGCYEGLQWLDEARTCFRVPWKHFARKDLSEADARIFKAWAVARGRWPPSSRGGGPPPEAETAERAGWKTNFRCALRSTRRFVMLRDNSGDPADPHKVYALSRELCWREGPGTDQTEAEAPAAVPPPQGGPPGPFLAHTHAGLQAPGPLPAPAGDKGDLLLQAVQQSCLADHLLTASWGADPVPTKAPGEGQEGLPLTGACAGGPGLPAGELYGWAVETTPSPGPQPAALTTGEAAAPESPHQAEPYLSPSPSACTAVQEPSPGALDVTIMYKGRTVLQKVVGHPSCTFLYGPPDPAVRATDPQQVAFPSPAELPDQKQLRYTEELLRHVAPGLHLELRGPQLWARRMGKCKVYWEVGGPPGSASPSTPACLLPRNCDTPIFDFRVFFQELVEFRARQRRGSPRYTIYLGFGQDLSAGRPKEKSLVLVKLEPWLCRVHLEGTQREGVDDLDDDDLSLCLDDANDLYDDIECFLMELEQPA
Oligonucleotide | fitted relative affinity
GACGAACTGTGGACTGGAGACGTGCTA | -0.236 z-score
TTAGATTGCAGACTGGATTAGTGCTAG | -0.274 z-score
CTGTACATCTATGTAGAAAGGTGCTAG | 0.347 z-score
TCAACAATTTCAGATTCCACTGTGCTA | 0.917 z-score
GACGATCTCAGTCTCGTGACGTGCTAG | 0.449 z-score
TTAGGATTCGGACTGGGTTAGTGCTAG | 0.238 z-score
TCAGGTTCAGATATAGGACTGTGCTAG | 0.289 z-score
TCATGTCTGTGTTTCCTACTGTGCTAG | 2.17 z-score

Block 3 — observed: enzyme activity; mode: inhibitor; concentration: 20 µM
Target: Replicase polyprotein 1ab, polymerase (rep, Severe acute respiratory syndrome coronavirus 2, UniProt P0DTD1)
SMILES | inhibition [%]
Cc1cc2sc(NC(=O)Cc3ccccc3)nc2cc1Cl | -10.4
COC(=O)N1CC[C@@H]2[C@H]1CCC[C@@]2(O)C#Cc1cccc(C)c1 | -1.82
Nc1nc2c(cnn2CCc2ccccc2)c2nc(-c3ccco3)nn12 | 2.43
Clc1ccc(N/N=C(\c2ccccc2)c2ccccn2)nc1 | 3.01
CN1CCN(c2c(F)cc3c(=O)c(C(=O)O)cn4c3c2OCN4C)CC1 | 5.12
C=C1/C(=C\C=C2/CCC[C@]3(C)[C@@H]([C@H](C)OCCC(C)(C)O)CC[C@@H]23)C[C@@H](O)C[C@@H]1O | -5.08
O=C1Nc2ccc(Cl)c3c2C1(CCCCN1CC=C(c2ccc(Cl)cc2)CC1)CCC3 (stereo not drawn) | 10.4
CC(C)C[C@H](NC(=O)N1CCCCCC1)C(=O)N[C@H](Cc1cn(C)c2ccccc12)C(=O)N[C@H](Cc1ccccn1)C(=O)O | 1.76
CCC1(c2ccccc2)C(=O)N(COC)C(=O)N(COC)C1=O | 1.69
CCCN(CCC)C1Cc2cc(OC)c(OC)cc2C1 | -2.81
Fc1ccc(-n2cc(CCCCN3CCC4(CC3)OCc3ccccc34)c3ccccc32)cc1 | -6.15
Cc1cc(-c2nncc3c(C(C)(C)C)c(OCc4ncnn4C)nn23)no1 | -2.42
COC(=O)C1=C(C)NC(C)=C(C(=O)O[C@@H]2CCCN(Cc3ccccc3)C2)[C@@H]1c1cccc([N+](=O)[O-])c1 (racemic) | -0.2
COc1ccc(OC)c(C2C(C#N)=C(N)Oc3n[nH]c(-c4ccc5ccccc5c4)c32)c1 (stereo not drawn) | 0.51
N#CC(=C(/N)Sc1ccccc1N)/C(C#N)=C(\N)Sc1ccccc1N | 3.91
CC(C)Cc1sc(N)nc1-c1ccc(P(=O)(O)O)o1 | -0.48
Nc1cccc(-c2cc3c(Oc4cccc(O)c4)ncnc3[nH]2)c1 | 10.8
C[C@@H](Oc1cc(-c2cnn(C3CCNCC3)c2)cnc1N)c1c(Cl)ccc(F)c1Cl | 14.9
NS(=O)(=O)Nc1ncnc(OCCOc2ncc(Br)cn2)c1-c1ccc(Br)cc1 | -2.94
Cc1cc2c(F)c(Oc3ncnn4cc(OC[C@@H](C)OC(=O)[C@H](C)N)c(C)c34)ccc2[nH]1 | 15.8
CN1c2ccccc2C(NCCCCCCC(=O)O)c2ccc(Cl)cc2S1(=O)=O (stereo not drawn) | 0.57
C[C@]12CC[C@@H]3c4ccc(O)cc4CC[C@H]3[C@@H]1CC[C@@H]2OC(=O)CCC1CCCC1 | 7.69
C[C@@]12CC[C@@H]3[C@@](CC[C@H]4[C@@]3(C)CCC[C@@]4(C)C(=O)O)(CC1=O)C2 | -1.37
C[C@H]1CC[C@@]2(OC1)O[C@H]1C[C@H]3[C@@H]4CC[C@@H]5C[C@@H](O)CC[C@]5(C)[C@H]4CC[C@]3(C)[C@H]1[C@@H]2C | -0.19
CC(C)OC(=O)N1CCC(Oc2ncnc3c2cnn3-c2ccc(S(C)(=O)=O)cc2F)CC1 | -5.34

Block 4 — cell line: HEK-293T/ACE2; observed: pseudovirus infection; organism: VSV pseudotyped with SARS-CoV-2 spike; concentration: concentration not given; reference: vehicle-treated
SMILES | GFP-positive cells [%]
Br.Cc1ccc(Sc2ccccc2N2CCNCC2)c(C)c1 | 37.2
Cc1nc2c([nH]1)-c1ccccc1N(C(=O)c1ccc(NC(=O)c3ccccc3-c3ccccc3)cc1)CC2.Cl | 65.9
Cc1cc(C#N)cc(C)c1Oc1nc(Nc2ccc(C#N)cc2)nc(N)c1Br | 31

Block 5 — observed: enzyme activity; mode: inhibitor; concentration: 20 µM; setting: hit confirmation
Target: Replicase polyprotein 1ab, main protease (rep, Severe acute respiratory syndrome coronavirus 2, UniProt P0DTD1)
Structure (SMILES) | inhibition
COC(=O)C1=C(C)NC(C)=C(C(=O)OC)C1c1ccccc1[N+](=O)[O-] | 75.5% and 52.7%
CCCCC(CC)C/N=C(\N)N/C(N)=N/CCCCCC/N=C(\N)N/C(N)=N/CC(CC)CCCC (stereo not drawn) | -7.6%
COC(=O)CC[C@H](NC(=O)[C@H](CC(=O)OC)NC(=O)OCc1ccccc1)C(=O)N[C@H](C(=O)N[C@@H](CC(=O)OC)C(=O)CF)C(C)C | 110%

Mixed results — technique: protein-binding microarray; molecule type: hairpin DNA; medium: in vitro; concentration: not given; reference: not given; reading: higher = stronger binding
Setting: whole hairpin DNA, median over replicate spots
Oligonucleotide | target | median fluorescence
GAGGCCTGGTGTGGTTGGCCTCCTGGCCAACCACACCAGGCCTCACACTC | Runt-related transcription factor 1, full length (RUNX1, Homo sapiens, UniProt Q01196-8, residues 1-480) | 2160 a.u.
GAGGCCCACCACGCCCAGCCTCCTGGCTGGGCGTGGTGGGCCTCACACTC | Krueppel-like factor 3, full length (KLF3, Homo sapiens, UniProt P57682, residues 1-345) | 9240 a.u.
CGGACCGGCCCGGGCATGTCTCCTGACATGCCCGGGCCGGTCCGACACTC (5mC at 6 38) | Cellular tumor antigen p53, full length (TP53, Homo sapiens, UniProt P04637, residues 1-393) | 12200 a.u.
GAGGCCTTCACCGGAAGCCTCCTGGCTTCCGGTGAAGGCCTCACACTCTTTCCCTACACG (5mC at 9) | Signal transducer and activator of transcription 1-alpha/beta, full length (STAT1, Homo sapiens, UniProt P42224, residues 1-750) | 1250 a.u.

Repeated from above (block 3):
SMILES | inhibition [%]
Nc1nc2c(cnn2CCc2ccccc2)c2nc(-c3ccco3)nn12 | 2.43
Clc1ccc(N/N=C(\c2ccccc2)c2ccccn2)nc1 | 3.01
CN1CCN(c2c(F)cc3c(=O)c(C(=O)O)cn4c3c2OCN4C)CC1 | 5.12
C=C1/C(=C\C=C2/CCC[C@]3(C)[C@@H]([C@H](C)OCCC(C)(C)O)CC[C@@H]23)C[C@@H](O)C[C@@H]1O | -5.08
O=C1Nc2ccc(Cl)c3c2C1(CCCCN1CC=C(c2ccc(Cl)cc2)CC1)CCC3 (stereo not drawn) | 10.4
CC(C)C[C@H](NC(=O)N1CCCCCC1)C(=O)N[C@H](Cc1cn(C)c2ccccc12)C(=O)N[C@H](Cc1ccccn1)C(=O)O | 1.76
CCC1(c2ccccc2)C(=O)N(COC)C(=O)N(COC)C1=O | 1.69
